Results collected from several papers.
Values joined by “and” are separate records of one study, mostly repeats; a detail may differ. Numbers after ± are the reported error.

CC1(C)CNc2cc(NC(=O)c3cccnc3NCc3ccncc3)ccc21
ATP level (iCell Cardiomyocytes (hiPSC-derived); CellTiter-Glo; concentration not given, 24 h; baseline: control): 105%

CCn1c(-c2nonc2N)nc2cncc(CNC3CCNCC3)c21
relative cell number (SK-OV-3; ATP; 0.01 µM, 4 days, 3D gellan gum culture; baseline: untreated): 98.3%

CNC(=O)c1ccccc1Sc1ccc2c(/C=C/c3ccccn3)n[nH]c2c1
beat amplitude (iCell Cardiomyocytes (hiPSC-derived); xCELLigence Cardio impedance; concentration not given, 2 h; baseline: control): 104%

C[C@]12CCCN1CC1=NNC(=O)c3cc(F)cc4[nH]c2c1c34
EC50 (AGS gastric cancer cells; cell viability; concentration not given, together with: with temozolomide): > 10 µM

Clc1ccc(C2(c3ccc(-c4cn[nH]c4)cc3)CCNCC2)cc1
relative cell number (SK-OV-3; ATP; 2D monolayer culture; 10 µM, 4 days; baseline: untreated): 4.3%

CC(C)C[C@@H](C=O)NC(=O)[C@H](CC(C)C)NC(=O)[C@H](CC(C)C)NC(=O)OCc1ccccc1
FLuc activity (HEK293; item: CD4 signal peptide-FLuc reporter; concentration not given, 4 h, time-course chase, unit not given, together with: cycloheximide; baseline: untreated): 1.26

COc1ccc(C[C@@H]2c3cc(Oc4cc(C[C@@H]5c6cc(O)c(OC)cc6CCN5C)ccc4O)c(OC)cc3CCN2C)cc1
inhibition (3T3-L1; adipocyte lipid accumulation, Nile Red staining; 2.5 µM): 17 ± 1%

C=CC(=O)Nc1cc2c(Nc3ccc(F)c(Cl)c3)ncnc2cc1OCCCN1CCOCC1
ATP level (iCell Cardiomyocytes (hiPSC-derived); CellTiter-Glo; concentration not given, 24 h; baseline: control): 98.3%

C=CC(=O)N1CCC([C@@H]2CCNc3c(C(N)=O)c(-c4ccc(Oc5ccccc5)cc4)nn32)CC1
maximum inhibition (Ramos; calcium flux, FLIPR; 1 h preincubation): 95.8%

COc1ccc2ncnc(Cc3ccc(OC)c(OC)c3)c2c1
inhibition (A549; mitochondrial oxygen consumption, Seahorse XF96; 10 µM): 12%

CC(C)(C)c1cnc(CSc2cnc(NC(=O)C3CCN(C(=O)CCCCCCCN4Cc5cc6c(cc5C4)C(=O)N(C4CCC(=O)NC4=O)C6=O)CC3)s2)o1 (stereo not shown)
number of upregulated genes (TC-71; RNA-seq; 10 nM, 8 h): 777 genes

CCc1cnc(N2CCC(c3nc(COc4ccc(-n5cnnn5)cc4)cs3)CC2)nc1
normalized enrichment score (HEK-293T; RNA-seq GSEA, item: HALLMARK_COMPLEMENT; concentration not given; direction not given): -0.871

CC(C)(C)c1cc(/C=C2\SC(N)=NC2=O)cc(C(C)(C)C)c1O
maximal ROS response (HepaRG; ROS-Glo): -65.6 ± 41.1%

C[C@H](NC(=O)C(=O)Nc1ccccc1C(C)(C)C)C(=O)N[C@@H](CC(=O)O)C(=O)COc1c(F)c(F)cc(F)c1F
viability (EA.hy926; apoptosis, CellTiter-Glo; concentration not given, together with: TRAIL): 83.2%

O=C(/C=C/C=C/C=C/C1CCCCC1)NC1=C[C@@](O)(/C=C/C=C/C=C/C(=O)NC2=C(O)CCC2=O)[C@@H]2O[C@@H]2C1=O
GI50 (NCI-H2009; cell growth, CellTiter-Glo; 78 h): > 30 µM

Cc1ccc(-n2nc(C(C)(C)C)cc2NC(=O)Nc2ccc(OCCN3CCOCC3)c3ccccc23)cc1
beat rate (iCell Cardiomyocytes (hiPSC-derived); xCELLigence Cardio impedance; concentration not given, 2 h; baseline: control): 101%

COc1cnc2cccc(N3CCc4c(cc(Cn5ccnc5C)cc4-c4cn(C)nc4C(F)(F)F)C3=O)c2c1
EC50 (Farage; cell growth; 120 h): 3.11 µM

C[C@H](Nc1ccc2c(c1)OCCn1cc(N3C(=O)OC[C@H]3C(F)F)nc1-2)C(N)=O
GR50 (T47D; cell growth; 72 h): 12.6 nM

[Cl-].[Cl-].[Os+2].c1cnc2c(c1)ccc1cccnc12.c1cnc2c(c1)ccc1cccnc12.c1cnc2c(c1)ccc1cccnc12
GI50 (SK-MEL-28; cell growth, SRB; dark, 1% O2 hypoxia): 127 µM

OC1CCN(c2ccc(/C=N/NC(=S)NCc3ccc(Cl)cc3)cc2)CC1
selectivity ratio (BEAS-2B and A549; MTT; baseline: IC50 BEAS-2B over IC50 A549): 9.2

Cc1cc2c(F)c(Oc3ncnn4cc(OC[C@@H](C)O)c(C)c34)ccc2[nH]1
cell index (iCell Cardiomyocytes (hiPSC-derived); cellular impedance; concentration not given, 24 h; baseline: control): 102%

C[C@H]1Oc2cc(cnc2N)-c2c(nn(C)c2C#N)CN(C)C(=O)c2ccc(F)cc21
Emax (KARPAS-299 (NPM1-ALK); cell viability): 76.9%

COc1ccc2c(c1OC)CN1CCc3cc4c(cc3C1=C2)OCO4
PGD2 level (KU812; culture supernatant; 100 µM, together with: A23187): 20 pg/mL

Cc1cccc(-c2[nH]c(CNc3ccccc3F)nc2-c2ccc3ncnn3c2)n1
viability (MM1.S; XTT; 1.2 µM; baseline: untreated): 51%

CCn1cc(-c2cc(Cn3ccoc3=N)cc3c2CCN([C@@H](C)c2cc(OC)ccn2)C3=O)c(C(F)(F)F)n1
EC50 (HuH-1; cell growth, inhibitor; 120 h): > 30 µM

FC(F)(F)Oc1ccc(CNc2ccc3nc(COCc4ccccc4)[nH]c3c2)cc1
Emax (sample A patient iPSC NPCs; cell protection, MTS; up to 100 µM, 24 h): 20%

CCn1cc(-c2cc(Cn3ccnc3)cc3c2CCN([C@H](c2cc(OC)ccn2)C2CC2)C3=O)c(C(F)(F)F)n1
EC50 (MKN-74; cell growth, inhibitor; 120 h): > 30 µM

C#Cc1cccc(Nc2ncnc3cc(OCCOC)c(OCCOC)cc23)c1
ATP level (iCell Cardiomyocytes (hiPSC-derived); CellTiter-Glo; concentration not given, 24 h; baseline: control): 93.1%

C=CC(=O)N1CCC[C@@H](n2nc(-c3ccc(Oc4ccccc4)cc3)c3c(N)ncnc32)C1
maximal inhibition (Ramos; calcium flux, FLIPR): ≤ 90%

COc1ccc2c(N(C)c3ccc(/C(C)=N/OCCN)cc3)c3c(Cl)coc3nc2c1
growth inhibition (LNCaP C-81; trypan blue exclusion; 1 µM, 72 h, SR conditions): 80 to 90% and 70 to 80%

Cn1cc(-c2ccc(F)c(C(F)(F)F)c2)nc1C1CCN(c2ncnc3[nH]ncc23)CC1
relative cell number (SK-OV-3; ATP; 1 µM, 4 days, 3D gellan gum culture; baseline: untreated): 95.2%

CSc1cc(Oc2ccnc3[nH]c(=O)cnc23)ccc1NC(=O)Nc1cc(C(C)(C)C)nn1-c1ccccc1
phospho ratio (patient-derived cells; RPPA, item: phosphorylated SAPK/JNK; 1 µM, 4 h, mean of three patients; baseline: DMSO): 0.57

CN1CCN(c2ccc3[nH]c(-c4ccc5[nH]c(-c6ccc(C(F)(F)F)cc6)nc5c4)nc3c2)CC1
growth percent (KM12; SRB; 10 µM, 48 h): 49.7%

Cn1cc(-c2ccc(-c3cncc(Cl)c3N3CCC4(CCNC4=O)CC3)cc2)cn1
log2 fold change (COLO 205; gene expression, microarray, item: BCL2L1 mRNA; concentration not given, 6 h; baseline: untreated cells): 1.2

Cc1cc(Nc2ncc(Cl)c(Nc3ccccc3S(=O)(=O)C(C)C)n2)c(OC(C)C)cc1C1CCNCC1
log2 fold change (CLB-GE; phosphoproteomics LC-MS/MS, item: RLTPR phosphorylation; 200 nM, 60 min; baseline: untreated): -3.8

C[C@H]1CN(C2COC2)CCN1c1ccc(Nc2cc(-c3ccnc(N4CCn5c(cc6c5CC(C)(C)C6)C4=O)c3CO)cn(C)c2=O)nc1
IC50 (TMD8 RAC2 knockout; calcium flux, FLIPR; 2 h preincubation): 0.0011 µM

Cc1ccc2nc(NCCN)c3ncc(C)n3c2c1
cell index (iCell Cardiomyocytes (hiPSC-derived); cellular impedance; concentration not given, 24 h; baseline: control): 96.8%

CC(C)NCC(O)c1ccc(O)c(O)c1 (stereo not shown)
sarcomere length (mouse ventricular cardiomyocytes; dose not given, 0.411 s): 1.78 µm

CN(C)C/C=C/C(=O)Nc1cc2c(Nc3ccc(F)c(Cl)c3)ncnc2cc1O[C@H]1CCOC1
ATP level (iCell Cardiomyocytes (hiPSC-derived); CellTiter-Glo; concentration not given, 24 h; baseline: control): 89.5%

COc1cc([C@@H]2c3cc4c(cc3[C@@H](O[C@@H]3O[C@@H]5CO[C@@H](C)O[C@H]5[C@H](O)[C@H]3O)[C@H]3COC(=O)[C@H]23)OCO4)cc(OC)c1O
apoptotic cells (DF-1; annexin V staining; 5 µM, 72 h): 16.1 ± 3.15%

For quick reference, copied from above:
COc1ccc(C[C@@H]2c3cc(Oc4cc(C[C@@H]5c6cc(O)c(OC)cc6CCN5C)ccc4O)c(OC)cc3CCN2C)cc1
inhibition (3T3-L1; adipocyte lipid accumulation, Nile Red staining; 2.5 µM): 17 ± 1%

C[C@H]1Oc2cc(cnc2N)-c2c(nn(C)c2C#N)CN(C)C(=O)c2ccc(F)cc21
Emax (KARPAS-299 (NPM1-ALK); cell viability): 76.9%

C=CC(=O)Nc1cc2c(Nc3ccc(F)c(Cl)c3)ncnc2cc1OCCCN1CCOCC1
ATP level (iCell Cardiomyocytes (hiPSC-derived); CellTiter-Glo; concentration not given, 24 h; baseline: control): 98.3%

COc1cc([C@@H]2c3cc4c(cc3[C@@H](O[C@@H]3O[C@@H]5CO[C@@H](C)O[C@H]5[C@H](O)[C@H]3O)[C@H]3COC(=O)[C@H]23)OCO4)cc(OC)c1O
apoptotic cells (DF-1; annexin V staining; 5 µM, 72 h): 16.1 ± 3.15%

Cc1cccc(-c2[nH]c(CNc3ccccc3F)nc2-c2ccc3ncnn3c2)n1
viability (MM1.S; XTT; 1.2 µM; baseline: untreated): 51%
